# Results of several laboratories.
# Protocols differ between the studies behind these lines. ± gives the spread as reported.
SMILES,tested on,test,system,conditions,how to read,quantity,value
CO[C@H]1[C@H](O)[C@H](O[C@H]2CC[C@@]3(C=O)[C@H](CC[C@@H]4[C@@H]3CC[C@]3(C)[C@@H](C5=CC(=O)OC5)CC[C@]43O)C2)O[C@@H](C)[C@@H]1O,human iPSC-derived cardiomyocytes,"MyBP-C/MYH ratio, plate-normalised SD score",,"concentration not given, primary screen",direction not given,activity score,7.1
COc1cc2c(Oc3ccc4[nH]c(C)cc4c3F)ccnc2cc1OCC1(N)CC1,,,paediatric refractory sarcoma patients,10 mg,,ALP elevation incidence,25%
Nc1ncc(-c2nc(N3CCOCC3)nc(N3CCOCC3)n2)c(C(F)F)n1,panel of 66 cancer cell lines,cell growth,,"72 h, panel mean",,GI50,249 nM
CC(C)N1CCC(NC2CCN(c3cccc(-c4cc5cc(F)ccc5[nH]4)c3)CC2)CC1,HCT-15,,,,,GI50,749 nM
C[CH2][Hg][S]c1ccccc1C(=O)[O-].[Na+],BT-16,"cell viability, MTT",,"10 µM, 72 h",,inhibition,94.1%
CN1C(=O)[C@@]23C[C@]4([C@]56C[C@@]78SS[C@@](CO)(C(=O)N7[C@H]5Nc5ccccc56)N(C)C8=O)c5ccccc5N[C@@H]4N2C(=O)[C@]1(CO)SS3,HBL-1,,,"0.5 µM, 120 h",,viability,0.383%
COc1c(CCC[P+](c2ccccc2)(c2ccccc2)c2ccccc2)cc2c(c1OC)OCO2.[I-],NCI-H23,SRB,,,,TGI,-4.99 log M
Oc1ccc(C(c2ccc(O)cc2)(C(F)(F)F)C(F)(F)F)cc1,HepG2 spheroids,Hoechst flow cytometry,,"10 µM, 96 h",,S phase cells,8.15 ± 1.18%
CC[C@H](C)[C@H](NC(=O)[C@H](CCCCN)NC(=O)[C@@H](NC(=O)[C@H](C)NC(=O)[C@H](CC(C)C)NC(=O)[C@H](CCCCN)NC(=O)[C@H](Cc1ccccc1)NC(=O)[C@H](CC(C)C)NC(=O)[C@H](Cc1c[nH]cn1)NC(=O)CNC(=O)[C@H](Cc1ccccc1)NC(=O)[C@@H](N)Cc1ccccc1)[C@@H](C)O)C(=O)N[C@H](C(=O)N1CCC[C@H]1C(=O)N[C@@H](CO)C(=O)N[C@@H](CC(C)C)C(=O)N[C@@H](Cc1ccccc1)C(=O)N[C@@H](CCC(N)=O)C(=O)N[C@@H](CS)C(N)=O)[C@@H](C)CC,human red blood cells,,,pH 7.4,relative to: Triton X-100,EC50,12000 nM
O=C1N(Cc2ccccc2Cl)c2ccccc2C12NN=C(c1ccccc1)S2 (centres unmarked),MDA-MB-468,"gene expression array, measured: FAM125A mRNA",,"10 µM, 12 h","relative to: untreated, up",fold change,1.59
CCN(CC)c1ccc(C=NNC(=O)CSc2nc3ccccc3c(=O)n2Cc2ccc(S(N)(=O)=O)cc2)c(O)c1,HCC 2998,NCI five-dose screen,,,,CC50,> 100000 nM
COc1c(C)c2c(c(O)c1C/C=C(\C)CCC(=O)O)C(=O)OC2,ASPC1,cell proliferation,pancreas cancer,,,IC50,2240 nM
Cc1cc(NS(=O)(=O)c2ccc(NC(=O)/C(C#N)=C/c3ccc(N4CCCCC4)cc3)cc2)no1,HCT-116,"qRT-PCR, measured: survivin",,concentration not given,relative to: untreated,mRNA level decrease,3.7 fold
COc1ccc2c(c1)[nH]c1c(C)nccc12,DU-145,"bisulfite pyrosequencing, measured: RASSF1A promoter CpG site 3",,"10 µM, 16 h",,DNA methylation,85.5%
COc1cc(CCC[P+](c2ccccc2)(c2ccccc2)c2ccccc2)c(OC)c2c1OCO2.[I-],NCI-H23,SRB,,,,GI50,-5.78 log M
CC[C@H]1CN2CC[C@H]1C[C@@H]2[C@@H](O)c1ccnc2ccc(OC)cc12,human iPSC-derived cardiomyocytes,"MyBP-C/MYH ratio, plate-normalised SD score",,"concentration not given, primary screen",direction not given,activity score,3.8
C/C=C(/C)C(=O)O[C@H]1C(C)=C2[C@H]([C@@H]1OC(=O)CCCCCCC)[C@@](C)(OC(C)=O)C[C@H](OC(=O)CCC)[C@@]1(O)[C@H]2OC(=O)[C@@]1(C)O,HEK293T,"RNA-seq, measured: HSPB1 mRNA",,"10 µM, 6 h",relative to: vehicle,log2 fold change,-0.534

# Some of these lines once more:
SMILES,tested on,test,system,conditions,how to read,quantity,value
COc1c(C)c2c(c(O)c1C/C=C(\C)CCC(=O)O)C(=O)OC2,ASPC1,cell proliferation,pancreas cancer,,,IC50,2240 nM
CC(C)N1CCC(NC2CCN(c3cccc(-c4cc5cc(F)ccc5[nH]4)c3)CC2)CC1,HCT-15,,,,,GI50,749 nM
